Assay results of several laboratories.
A part holds a random share of what one study measured.

Set 1
Target: RING finger protein unkempt homolog, zinc fingers 1-6, SBP tag (UNK, Homo sapiens, UniProt Q9C0B0, residues 30-357)
Chain of UniProt Q9C0B0 (30-357, looked up): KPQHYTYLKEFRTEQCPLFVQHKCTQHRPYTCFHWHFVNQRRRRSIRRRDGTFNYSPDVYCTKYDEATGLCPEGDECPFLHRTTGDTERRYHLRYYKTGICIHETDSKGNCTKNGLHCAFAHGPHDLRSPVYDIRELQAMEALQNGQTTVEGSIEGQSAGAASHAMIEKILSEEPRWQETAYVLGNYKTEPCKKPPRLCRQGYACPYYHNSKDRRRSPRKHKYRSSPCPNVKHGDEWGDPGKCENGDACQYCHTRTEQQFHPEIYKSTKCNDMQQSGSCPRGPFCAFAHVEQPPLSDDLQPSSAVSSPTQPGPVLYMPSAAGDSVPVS
Method: RNA Bind-n-Seq
Molecule type: RNA
Matrix: in vitro
Tested at: 100 nM
Notes: RNA with constant flanks, vertebrate orthologous sites, ends assumed
Baseline: input RNA pool
Reading: higher = stronger binding
Shared flanks, not repeated: GGGAGUUCUACAGUCCGACGAUC … CAACAGAGGAUUGAGCAUCA
Oligonucleotide | bound/input enrichment [ratio]
AUUGACAGUGAAAAGAGCCAAGCAGUAGCAUUUUGUUUUUUUUAUAAAUGUAAAAAUUAGAUUCACUUUGUUUCCUAUUCAGUUUUAAAAAUAAAAAUACCUCAGUGCUGUGUUUCCCAG | 0.615
AAAUCAUGGUCGCUUUUUACCGCCUCAAUGAGGUAGUCUCUCUUGAUGUUUGGUUGUGACAAGAGCCCAUCGUACCAAAUAAGUCUUUCCACAUUUCAUUUCUUUCACACUCUUAGUCAC | 0.855
UGUGCUUAUGCUCUUCUGAGGAAGAGAUGAAUUGGGGAGAGCUGUCCCCUUUUUAUAGAUUAGUUUGUUUCUAAAUUAUGACCAAAAAAUAUUUUGCUAUUUCUUUCUUUAUAUAUGGAC | 0.731
AGCAACUCAAGGAUUCAGGACUGGUUUUACAAAUAUCCCAAGUAGAUAUGGAACUAGCACUCGAGGUCAACCCCAUCCAUAAUAAACUCUAAUUUGUAUUAUUUAUUAUACUUAAGGGUA | 0.623
AAAUUUAUUUCAUGCCUUGGACGCCCUAUCGUACUGAUACUUUAAUAGAAUAUGCUUCUUUAGAAGAUUUCCAAAAUAGUCGCCAAACAACGACAUAUAAACUUCCAAAUCGAGUAGAUG | 1.26
UCAGGGACGCUUUGACCUUAAACUCUAUGUCAAGUCAUGACCUCAGCUAUGAAAAUAGCAUUUACUCUGCCCAUUUUAAAAUGUAAUAAUUUAGAGAAAAAAUAUUAAAGUUAAAAAAAA | 0.462

Set 2
Target: Ras GTPase-activating protein-binding protein 1, C-terminal RGG region (G3BP1, Homo sapiens, UniProt Q13283)
Chain of UniProt Q13283 (whole entry, looked up): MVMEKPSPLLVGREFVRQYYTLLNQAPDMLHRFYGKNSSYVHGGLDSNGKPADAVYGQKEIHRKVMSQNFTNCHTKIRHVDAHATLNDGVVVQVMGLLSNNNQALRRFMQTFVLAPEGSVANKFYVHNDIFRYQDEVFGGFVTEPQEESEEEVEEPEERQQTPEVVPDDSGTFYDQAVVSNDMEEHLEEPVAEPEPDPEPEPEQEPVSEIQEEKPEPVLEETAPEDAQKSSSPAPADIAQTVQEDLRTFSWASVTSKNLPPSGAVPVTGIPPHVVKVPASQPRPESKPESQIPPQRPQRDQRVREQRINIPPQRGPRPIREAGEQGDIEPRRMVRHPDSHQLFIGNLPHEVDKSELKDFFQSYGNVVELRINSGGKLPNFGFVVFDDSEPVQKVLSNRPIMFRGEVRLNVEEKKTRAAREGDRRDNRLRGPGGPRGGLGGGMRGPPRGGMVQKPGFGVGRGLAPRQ
Method: RNA Bind-n-Seq
Molecule type: RNA
Matrix: in vitro
Tested at: 1 µM
Notes: whole 134-nt RNA, ends assumed
Added: 150 mM KCl
Baseline: input library
Reading: higher = stronger binding
Shared flanks, not repeated: GGGAGUUCUACAGUCCGACGAUC … UGGAAUUCUCGGGUGUCAAGG
Oligonucleotide | log2 enrichment
GCAGGAAGUAAAAACAAAUGGAAAUGCUUCGGAUAGUGGCAGGGGUGGGGGUUGCUAAGGAAAAGGUGGGAUGGGAGUGGGUAAAGAGUU | 1.71
AAGUCCUGUGCUACACAUCGUAUGUACCGAAUCGGGAAAGGGUUUUUGGGAAAGGGAAAGUAUUAUGUUACGCCGUUCGGAUCUGCACUU | 0.631
AGUCCUGUGCUACACAUCGUAUGUACCGAAUCGGGGUUUUUUUGGGGAGGGGUGGGGAAAGUAUUAUGUUACGCCGUUCGGAUCUGCACU | 2.23
UUGAACAUCUGCAGGAAAAGAGGCGAGAGGGCACUUUGAGAGUGGAUACCUACACUCUAGUGCAGCCUGAGGCAGAAGACCAUGUUGAGA | -1.69
CCUGUGCUACACAUCGUAUGUACCGAAUCGGAAAAAAGGGGAAAAAAGGGGAAAAAAGGGGAAAGUAUUAUGUUACGCCGUUCGGAUCUG | -1.32
CAAGUCCUGUGCUACACAUCGUAUGUACCGAAUCGGUUUUUGGAAAAAGGAAAGGAAAGUAUUAUGUUACGCCGUUCGGAUCUGCACUUC | -1.78
UAACUUUAGAGGAGGAUCUGAUGGAUAUGGCAGUGGACGUGGAUUUUGGGAUGGCUAUAAUGGGUAUGGAGGAGGACCUGGAGGUGGCAA | -0.9

Set 3
Target: Sal-like protein 4, full length isoform A (SALL4, Homo sapiens, UniProt Q9UJQ4, residues 1-1053)
Chain of UniProt Q9UJQ4 (whole entry, looked up): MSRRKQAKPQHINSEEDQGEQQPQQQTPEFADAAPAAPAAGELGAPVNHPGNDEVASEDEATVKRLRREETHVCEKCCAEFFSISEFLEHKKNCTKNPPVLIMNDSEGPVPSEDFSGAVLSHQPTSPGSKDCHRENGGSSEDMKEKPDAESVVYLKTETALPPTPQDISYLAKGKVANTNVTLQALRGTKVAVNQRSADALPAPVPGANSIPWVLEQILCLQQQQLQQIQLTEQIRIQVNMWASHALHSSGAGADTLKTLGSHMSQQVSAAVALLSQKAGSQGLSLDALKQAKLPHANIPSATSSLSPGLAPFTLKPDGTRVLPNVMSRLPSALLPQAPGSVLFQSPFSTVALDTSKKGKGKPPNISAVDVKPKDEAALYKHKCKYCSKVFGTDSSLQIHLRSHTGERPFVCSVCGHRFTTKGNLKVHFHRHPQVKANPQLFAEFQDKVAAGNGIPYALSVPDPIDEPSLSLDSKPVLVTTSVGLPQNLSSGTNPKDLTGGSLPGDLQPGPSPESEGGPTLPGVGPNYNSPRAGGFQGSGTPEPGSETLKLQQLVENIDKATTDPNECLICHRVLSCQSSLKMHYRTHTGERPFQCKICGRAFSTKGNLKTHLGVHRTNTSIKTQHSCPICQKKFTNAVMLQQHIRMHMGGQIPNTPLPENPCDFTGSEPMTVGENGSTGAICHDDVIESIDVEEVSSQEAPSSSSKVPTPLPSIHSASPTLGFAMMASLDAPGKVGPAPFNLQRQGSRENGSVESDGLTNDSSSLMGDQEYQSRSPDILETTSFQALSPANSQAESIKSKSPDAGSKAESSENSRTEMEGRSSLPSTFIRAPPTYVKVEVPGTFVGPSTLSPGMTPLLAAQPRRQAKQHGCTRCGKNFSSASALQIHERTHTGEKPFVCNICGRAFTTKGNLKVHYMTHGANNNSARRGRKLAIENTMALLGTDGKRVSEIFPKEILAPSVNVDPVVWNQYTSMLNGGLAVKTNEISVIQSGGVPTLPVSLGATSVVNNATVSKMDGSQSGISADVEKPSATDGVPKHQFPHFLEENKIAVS
Method: universal PBM
Molecule type: double-stranded DNA, one strand shown
Matrix: in vitro
Tested at: 600 nM
Notes: 8-mer, flanks averaged, mean of replicates
Reading: higher = stronger binding
Oligonucleotide | E-score
AGTCATCA | -0.096
CCACTGGG | -0.399
AAAGGGAT | 0.186
AACTAACA | 0.152
GCAGAGAA | -0.0141
AAATCGAC | 0.0863
CGCAGCAA | -0.152
ATCAATAG | 0.301
ACGATTAA | 0.243
CAAGTAGA | 0.00281
AGTGGGAA | 0.00813
ACGTTACT | 0.111
ACCCGCCA | -0.129
AAGCGTAG | -0.095
ACGTGGAC | -0.219

Set 4
Target: Prothrombin, mature alpha-thrombin (F2, Homo sapiens, UniProt P00734)
Method: aptamer microarray, sandwich
Molecule type: DNA with 2'F-ANA
Matrix: in vitro
Tested at: 200 nM
Notes: whole 15-mer aptamer, many near background
Added: Cy3 exosite-II aptamer, 400 nM
Reading: higher = stronger binding
Oligonucleotide: GGTTGGTGTGGTTGG
Modification | mean fluorescence intensity
2'F-ANA at 3 5 6 9 10 11 12 13 | 62.6 a.u.
2'F-ANA at 1 3 5 9 11 | 59.4 a.u.
2'F-ANA at 2 3 5 6 9 10 12 15 | 119 a.u.
2'F-ANA at 3 4 9 12 13 14 | 305 a.u.
2'F-ANA at 1 2 4 5 7 8 9 12 | 134 a.u.
2'F-ANA at 2 5 6 7 8 10 12 13 14 15 | 50.1 a.u.
2'F-ANA at 1 3 5 6 7 10 14 | 44.5 a.u.
2'F-ANA at 3 5 7 11 13 14 | 53.6 a.u.
2'F-ANA at 1 2 4 5 6 7 8 10 11 13 14 | 99.1 a.u.
2'F-ANA at 1 8 14 15 | 63.4 a.u.
2'F-ANA at 6 7 10 11 | 156 a.u.
2'F-ANA at 1 2 3 5 6 9 13 14 | 60.1 a.u.
2'F-ANA at 3 5 6 7 9 10 11 12 | 61.3 a.u.
2'F-ANA at 1 3 4 5 6 9 12 | 122 a.u.

Set 5
Target: RNA binding protein fox-1 homolog 2, RRM domain, GST-SBP tag (RBFOX2, Homo sapiens, UniProt O43251-10, residues 100-194)
Method: RNA Bind-n-Seq
Molecule type: RNA
Matrix: in vitro
Tested at: 365 nM
Notes: natural RNA segment, single round, ends assumed
Baseline: no-protein control
Reading: higher = stronger binding
Shared flanks, not repeated: GGGAGUUCUACAGUCCGACGAUC … UGGAAUUCUCGGGUGCCAA
Residues (chain): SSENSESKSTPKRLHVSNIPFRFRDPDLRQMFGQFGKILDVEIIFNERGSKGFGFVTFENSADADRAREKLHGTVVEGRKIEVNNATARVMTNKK
Oligonucleotide | RBNS enrichment (R)
AAGUGUCUCAGUCCACCUGAGCUGCCAUCCAGGGAUGCCAUCUGUGGGCACGCUGUGGGCAGGUGGGAGCUUGAUUCUCAGCACUUGGGGGAUCUGUUGUGUACGUGGAG | 1.05
UCCUGUAUAACAGACUGAGUCUAUUUAUAUUUUCUUUUUUUUAAGACUGUCUAGAAAUUUUGUGUAUUAUGAGGGGAAAAAAGGAAAAGCUUGAAUCUGUGUAGUCUCUG | 3.59
UGGGUGGGGGUGCAGUCCAUGUUCAAUGUUCCAGCAACGUGUGUAUGUGUGUGAGUAUGUGUGUAAAGACUAUGUGGCCAAAAUACCAUCUGGCCAGACGGGCCCACCCA | 1.12
GAAGGGGAAGAGGGUGACCUCAGCGGCUUUUCUCCCAAAAAUCGGCUGAAGGCUGGUUGUGGAUCCUUGUUCCUCUCCUGACCCCAUCUGGCUGCUGCCCCGUCUCCCAC | 0.334
AUGGAACAGGCUGUGGCCCCUGAGUCAUCUGAAACCUUGACAGACAGUGAGACAAAUGGAAGUACUCCCCUCGCAGAUUCAGACACUCCAAACGGGACACAGCAAGACGA | 0.595
UCAAAUACCAUAAAAGUGUUUGCUACAAUAAAUAAAAUUCUUGUGACUUUACUACCAAGUCAUCUCUGCACUCAUUGAAAUUCAGUCAUUGGUAGUGGAGGGCUGGAAUU | 0.413
UCCAAAUAAUCUCGUUUACUCUCACCUGUUUAUGCAAAUUGUAUAAGGUUUCUUAUGCCCAAGCUUGAAAAAUGAUUUCCCAGUAGACAAGAGGCGGCUACCUAUCCUAC | 0.68

Set 6
Target: Interferon regulatory factor 3, full length, phosphomimetic (IRF3, Homo sapiens, UniProt Q14653, residues 1-427, S386D/S396D/S398D/S402D/T404D/S405D)
Method: protein-binding microarray
Molecule type: double-stranded DNA, one strand shown
Matrix: in vitro
Tested at: 2540 nM top
Notes: 60-bp whole probe
Added: salmon DNA 0.4 mg/ml
Baseline: random background probes
Reading: higher = stronger binding
Shared flanks, not repeated: GCCTAGCAC … GTCTTGATTCGCTTGACGCTGCTG
Target sequence (chain): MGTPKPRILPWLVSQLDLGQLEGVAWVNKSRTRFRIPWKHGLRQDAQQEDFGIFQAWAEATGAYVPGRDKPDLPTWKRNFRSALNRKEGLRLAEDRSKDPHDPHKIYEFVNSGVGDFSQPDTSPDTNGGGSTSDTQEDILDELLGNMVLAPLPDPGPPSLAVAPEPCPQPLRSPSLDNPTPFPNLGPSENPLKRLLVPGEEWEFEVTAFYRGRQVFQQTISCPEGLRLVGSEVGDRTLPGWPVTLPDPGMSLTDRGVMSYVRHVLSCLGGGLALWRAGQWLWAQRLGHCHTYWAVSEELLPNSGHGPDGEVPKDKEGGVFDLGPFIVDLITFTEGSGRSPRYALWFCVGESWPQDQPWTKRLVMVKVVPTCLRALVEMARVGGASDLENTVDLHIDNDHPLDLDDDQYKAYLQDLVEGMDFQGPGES
Oligonucleotide | fitted relative affinity [z-score]
TCACTTATAAATAGCACACTGTGCTAG | 0.417
GACGGACGGCTACTGCTGACGTGCTAG | -1.08
TTAGATCTCAGACTCGATTAGTGCTAG | 0.163
TTTGCATTGCTTCTATAGGCGTGCTAG | -0.0482
GACGGTCTCGGTTTCGGGGCGTGCTAG | 3.37
GACGAACTGGGGTATCGCGACGTGCTA | -0.491
TTAGATTTCGGGACTGCATTAGTGCTA | 1.34
GTGAGAAATAAGTTTCTTTTGTGCTAG | 0.635
GCTGGGTTTTCTTGGCACAGGTGCTAG | -0.533
TTAGGTTTCGGTCTTGGTTAGTGCTAG | 9.42
GACGGACTGGGGTTTCGGCACGTGCTA | -0.112
ACCCGAGACACCGCCCCTTTGTGCTAG | -0.372
TTAAATTTCGGGTTTCGATTAGTGCTA | 3.47
TTAGGTTTCTGTTTCGGTTAGTGCTAG | 8.47
GACGATATCACTTTCGAGACGTGCTAG | 2.98
TCAATAATGGATATATAACTGTGCTAG | 0.0446
AACGGTTTCGGTTTCGGGACGTGCTAG | 11.3
